{"data": "Assay results pooled from the literature", "note": "Each numbered part is a random draw from the data of one study; scales do not carry over between parts. Several values in a cell are separate wells, animals, samples, runs or records. Positions count from the first letter of the parent shown.", "UniProt Q8TDX7, sequence (whole entry, looked up)": "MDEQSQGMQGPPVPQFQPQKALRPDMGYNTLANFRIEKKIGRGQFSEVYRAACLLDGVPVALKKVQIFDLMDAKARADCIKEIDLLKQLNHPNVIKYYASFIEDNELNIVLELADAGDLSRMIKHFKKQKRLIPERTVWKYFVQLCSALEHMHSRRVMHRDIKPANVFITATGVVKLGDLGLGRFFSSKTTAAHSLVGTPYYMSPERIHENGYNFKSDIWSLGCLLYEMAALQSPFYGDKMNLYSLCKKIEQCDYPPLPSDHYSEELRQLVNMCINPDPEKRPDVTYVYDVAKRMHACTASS", "UniProt P62344, sequence (whole entry, looked up)": "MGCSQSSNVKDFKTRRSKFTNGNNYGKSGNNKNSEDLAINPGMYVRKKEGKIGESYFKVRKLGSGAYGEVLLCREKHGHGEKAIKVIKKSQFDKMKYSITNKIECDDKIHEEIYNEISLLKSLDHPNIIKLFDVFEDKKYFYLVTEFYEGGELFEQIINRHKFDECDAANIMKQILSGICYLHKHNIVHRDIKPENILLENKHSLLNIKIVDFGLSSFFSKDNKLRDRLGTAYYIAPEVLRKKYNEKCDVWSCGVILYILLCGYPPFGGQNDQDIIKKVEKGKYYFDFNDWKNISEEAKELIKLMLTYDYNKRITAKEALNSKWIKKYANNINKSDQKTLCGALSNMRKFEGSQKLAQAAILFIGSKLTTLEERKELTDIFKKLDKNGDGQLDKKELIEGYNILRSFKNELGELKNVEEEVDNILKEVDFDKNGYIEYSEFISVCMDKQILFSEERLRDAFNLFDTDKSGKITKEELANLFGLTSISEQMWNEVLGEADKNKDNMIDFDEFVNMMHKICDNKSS"}
{"data": "Study 1", "target": "CCND3, cyclin fold, Cln2 fusion (human)", "method": "yeast growth competition, sequencing", "matrix": "yeast", "notes": "weak parent motif", "baseline": "not given", "direction": "higher = stronger binding", "starting sequence": "viral docking peptide; YKVKRRLVFGADD; partner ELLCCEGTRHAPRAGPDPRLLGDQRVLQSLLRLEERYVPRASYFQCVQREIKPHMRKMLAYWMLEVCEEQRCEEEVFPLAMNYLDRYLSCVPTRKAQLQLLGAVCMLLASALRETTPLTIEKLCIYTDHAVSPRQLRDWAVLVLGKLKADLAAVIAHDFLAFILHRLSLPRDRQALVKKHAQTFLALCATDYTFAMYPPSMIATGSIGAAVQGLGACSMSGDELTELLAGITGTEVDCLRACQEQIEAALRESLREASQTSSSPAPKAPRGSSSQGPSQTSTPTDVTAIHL"}
{"Variant": "L7H", "normalised enrichment score": -0.124}
{"Variant": "V8W", "normalised enrichment score": -0.00469}
{"Variant": "L7T", "normalised enrichment score": 0.296}
{"Variant": "V3N", "normalised enrichment score": -0.0489}
{"Variant": "V3M", "normalised enrichment score": 0.546}
{"Variant": "R6F", "normalised enrichment score": 0.12}
{"Variant": "R6N", "normalised enrichment score": 0.0284}
{"Variant": "K2N", "normalised enrichment score": 0.245}
{"data": "Study 2", "target": "HLA class I histocompatibility antigen, A alpha chain, allele A*26:03 (Homo sapiens, UniProt P04439)", "read-out": "peptide-MHC binding", "molecule type": "peptide", "tested at": "concentration not given"}
{"Molecule": "VMAASGAPF", "binding": "inactive"}
{"Molecule": "AVFDSFVER", "binding": "inactive"}
{"Molecule": "YMGLVKKAK", "binding": "inactive"}
{"Molecule": "ALFHKVQSY", "binding": "inactive"}
{"Molecule": "ILRPLGIEY", "binding": "inactive"}
{"Molecule": "TQRKKTLGF", "binding": "inactive"}
{"Molecule": "YQRALHTSI", "binding": "inactive"}
{"Molecule": "IQFMHEQGY", "binding": "inactive"}
{"data": "Other studies, line by line"}
{"SMILES": "O=C1Nc2ccc3ncsc3c2/C1=C/c1cnc[nH]1", "target or system": "NEK7 (Homo sapiens, UniProt Q8TDX7)", "assay": "enzyme activity, inhibitor", "conditions": "0.5 µM", "quantity": "remaining activity", "value": "79.6%"}
{"SMILES": "CCCCN(CCCC)C(=O)CN1C[C@@H](c2cc(OC)c3c(c2)OCO3)[C@H](C(=O)O)[C@H]1CC(C)(C)CCC", "target or system": "CDPK1 (Plasmodium falciparum, UniProt P62344)", "assay": "cell-free assay, competition with immobilised ligand", "conditions": "1 µM", "quantity": "remaining binding", "value": "86.9%"}
{"SMILES": "Cc1cc(Nc2ncc(Cl)c(Nc3ccccc3S(=O)(=O)C(C)C)n2)c(OC(C)C)cc1C1CCNCC1", "target or system": "Vesicular stomatitis virus", "assay": "pseudovirus infection", "conditions": "concentration not given, VSV-G control pseudotype", "scale": "baseline: vehicle", "quantity": "GFP-positive cells", "value": "110%"}
{"SMILES": "O=C(COc1ccccc1P(=O)(O)O)NCC(F)(F)c1cccc(F)c1", "target or system": "human islet β-cells", "assay": "β-cell death", "system": "human", "conditions": "10 µM, 24 h, with: 20 mM glucose + 500 µM palmitate", "scale": "baseline: GFP+ cells", "quantity": "dead β-cells", "value": "11.8% and 5.78% and 4.07% and 11.5%"}
{"note": "Some of these lines once more (study 1):"}
{"Variant": "V3M", "normalised enrichment score": 0.546}
{"Variant": "R6F", "normalised enrichment score": 0.12}
